Assay results pooled from the literature.
Numbered parts are unrelated; each lists some results of a single study. Several values in a cell are separate wells, animals, samples, runs or records.

Set 1 — sample: plasma
Compound: O=C1CCC(N2Cc3cc(C4CCN(Cc5ccccc5)CC4)ccc3C2=O)C(=O)N1 (centres unmarked)
system | setting | concentration
male CD-1 mouse | intravenous, 1 mg/kg, 6 h | 13.7 ng/mL
male CD-1 mouse | intravenous, 1 mg/kg, 4.98 min | 204 ng/mL
male Sprague-Dawley rat | oral, 3 mg/kg, 1 h | 55.6 ng/mL
male CD-1 mouse | intravenous, 1 mg/kg, 8 h | 9.19 ng/mL
male Sprague-Dawley rat | oral, 3 mg/kg, 15 min | 24.8 ng/mL
male CD-1 mouse | oral, 3 mg/kg, 4 h | 35.8 ng/mL
male Sprague-Dawley rat | intravenous, 1 mg/kg, 1 h | 64.4 ng/mL
male Sprague-Dawley rat | oral, 3 mg/kg, 8 h | 7.06 ng/mL
male Sprague-Dawley rat | intravenous, 1 mg/kg, 24 h | 1.14 ng/mL

Set 2 — organism: Cryptosporidium parvum; cells: HCT-8; strain: nanoluciferase-expressing
SMILES: CN(C(=O)c1ccn2ncc(-c3ccc(C(N)=O)cc3)c2c1)c1ccc(C#N)cn1
assay | setting | how to read | parasite luminescence
time-kill | 0.00914 µM, 24 h | higher = more parasites | 270000 RLU and 217000 RLU
washout | concentration not given, exposure 0-72 h post-infection, unit not given | reference: day 0 RLU | -1880 and -1850 and -1980 and -1840
time-kill | 0.2469 µM, 48 h | higher = more parasites | 26300 RLU and 24200 RLU
time-kill | 0.00102 µM, 72 h | higher = more parasites | 194000 RLU and 116000 RLU
time-kill | 0.00102 µM, 24 h | higher = more parasites | 221000 RLU and 241000 RLU
time-kill | 6.667 µM, 72 h | higher = more parasites | 20700 RLU and 29000 RLU
time-kill | 0.2469 µM, 72 h | higher = more parasites | 17800 RLU and 20300 RLU
time-kill | 20 µM, 48 h | higher = more parasites | 31500 RLU and 28800 RLU

Set 3 — effect on: RNA clamping; technique: fluorescence polarization; concentration: concentration not given; with: FAM-labelled poly r(AG)8 RNA
Target: Eukaryotic initiation factor 4A-III (Homo sapiens, UniProt P38919)
UniProt P38919, sequence (whole entry, looked up): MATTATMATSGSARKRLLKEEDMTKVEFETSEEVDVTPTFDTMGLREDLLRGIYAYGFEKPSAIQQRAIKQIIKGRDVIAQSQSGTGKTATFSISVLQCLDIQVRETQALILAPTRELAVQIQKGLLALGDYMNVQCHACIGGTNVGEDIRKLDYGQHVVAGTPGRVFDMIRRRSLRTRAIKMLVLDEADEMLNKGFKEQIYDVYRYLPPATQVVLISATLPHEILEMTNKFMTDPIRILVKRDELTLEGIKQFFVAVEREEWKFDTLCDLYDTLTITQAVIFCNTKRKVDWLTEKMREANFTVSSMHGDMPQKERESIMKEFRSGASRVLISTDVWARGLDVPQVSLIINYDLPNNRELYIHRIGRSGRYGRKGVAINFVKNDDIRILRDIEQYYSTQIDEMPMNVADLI
Compound | fluorescence polarization change [mP]
COC(=O)[C@@H]1[C@@H](c2ccccc2)[C@]2(c3ccc(OC)cc3)Oc3cc(OC)cc(OC)c3[C@@]23OC(c2ccc(OCc4ccccc4)cc2)=N[C@@]13O | 4.9
COc1cc(F)cc2c1[C@]1(O)[C@H](O)[C@H](C#N)[C@@H](c3ccccc3)[C@]1(c1ccc(Br)cc1)O2 | 25.6
COc1ccc([C@@]23Oc4cc(OC)cc(OC)c4[C@]2(O)c2[nH]nc(O)c2[C@H]3c2ccccc2)cc1 | 24.7
COc1ccc([C@]23Oc4cc(OC)cc(OC)c4[C@](O)(C2O)[C@H](c2c(F)c(F)c(F)c(F)c2F)[C@H]3c2ccccc2)cc1 (some centres unmarked) | 2.7
COc1ccc([C@@]23Oc4cc(OC)cc(OC)c4[C@]2(O)[C@H](O)[C@H](C(=O)c2ccco2)[C@H]3c2ccc(Br)cc2)cc1 | 1.3
COc1ccc([C@@]23Oc4cc(OC)cc(OC)c4[C@]2(O)c2nc(-c4ccccc4)n(CC(CC(=O)O)OC)c(=O)c2[C@H]3c2ccccc2)cc1 (some centres unmarked) | 3.4
COC(=O)[C@H]1C(=O)[C@@]2(Nc3ccccc3)c3c(OC)cc(OC)cc3O[C@@]2(c2ccc(OC)cc2)[C@@H]1c1ccccc1 | 2.3

Set 4 — effect on: ligand displacement; technique: radioligand; concentration: 10 µM
Target: 5-hydroxytryptamine receptor 1A (HTR1A, Homo sapiens, UniProt P08908)
UniProt P08908, sequence (whole entry, looked up): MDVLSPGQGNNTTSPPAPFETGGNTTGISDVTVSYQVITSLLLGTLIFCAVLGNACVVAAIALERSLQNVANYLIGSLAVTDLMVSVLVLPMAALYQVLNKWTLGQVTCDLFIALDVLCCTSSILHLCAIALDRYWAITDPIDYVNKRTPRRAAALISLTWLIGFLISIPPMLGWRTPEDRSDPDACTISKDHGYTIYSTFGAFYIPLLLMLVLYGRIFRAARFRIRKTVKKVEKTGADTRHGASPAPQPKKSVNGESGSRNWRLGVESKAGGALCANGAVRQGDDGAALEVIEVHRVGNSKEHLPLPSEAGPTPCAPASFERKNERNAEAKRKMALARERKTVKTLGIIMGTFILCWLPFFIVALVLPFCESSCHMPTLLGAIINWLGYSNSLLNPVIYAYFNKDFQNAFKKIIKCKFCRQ
SMILES | inhibition
CNCc1ccccc1-c1csc([C@H](C)Nc2nc(C)nc3cc(OC)c(OC)cc23)c1 | 93.8%
CNC(=O)Nc1ccc2c(c1)C1(CC2)OC(=O)N(CC(=O)N(Cc2ccc(F)cc2)[C@@H](C)C(F)(F)F)C1=O (single isomer, unassigned) | 4.17%
CN([C@@H]1CCc2c(CC(=O)O)c3cc(S(C)(=O)=O)ccc3n2C1)S(=O)(=O)c1ccc(F)cc1 | -10.6%
O=C([C@H]1C[C@H](O)CN1c1ccc(Cl)cc1)N1CC2COCC(C1)N2Cc1ccc(Cl)cc1 | -16%
O=C(O)c1cc(-c2ccc(C3CCNCC3)cc2)c2ccc(-c3ccc(C(F)(F)F)cc3)cc2c1 | 11.2%
CCOCCn1cc(C(=O)Nc2ccc(-n3nc(-c4cccnc4)cc3C(F)(F)F)cn2)ccc1=O | 13.9%
Cc1c(NC(=O)c2cc(C(N)=O)nc3cc(F)ccc23)c(C(F)(F)F)nn1Cc1ccc(C(C)(C)C)cc1 | 18.6%
CC(=O)c1c(NS(C)(=O)=O)c2cc(-c3ccc(Cl)cc3)c(-c3ccc(Cl)cc3Cl)nc2n(C)c1=O | 28.7%
Cc1nccc(COC(=O)N2C[C@@H]3[C@@H](CNC(=O)c4ccc5[nH]nnc5c4)[C@@H]3C2)n1 | -7.66%
COc1cccc(CNC(=O)c2nc3scc(COCc4ccc(C(=O)O)cc4)c3c(=O)[nH]2)c1 | 7.7%
O=C(Nc1cccnn1)N1CCC(=Cc2cccc(Oc3ccc(C(F)(F)F)cn3)c2)CC1 | 20.2%
O=C(O)[C@H]1[C@H](Cn2nnc3ccccc3c2=O)CC[C@@H]1C(=O)c1ccc(OCCC2CCOCC2)cc1 | -0.18%
O=C(N[C@H]1CCCCC/C=C\C2C[C@@]2(C(=O)O)NC(=O)[C@@H]2C[C@@H](Oc3ccncc3)CN2C1=O)OC1CCCC1 (some centres unmarked) | -13.8%
O=c1nc(-c2ccccn2)sc2ccccc12 | 9.69%
Cc1cc(NC(=O)c2cccc(S(F)(F)(F)(F)F)c2)cc(-n2ccn3nc(-c4cccnc4)cc23)c1 | 69.8%
FC(F)(F)c1ccc2c(c1)nc(-c1cccnc1)n2C1CC1 | 0.44%
Cn1nc(C(=O)NCc2ccc(C(=O)O)cc2)cc1-c1ccc2[nH]ccc2c1 | 22.7%
NS(=O)(=O)c1cc(NC(=O)C2(c3ccccc3Cl)CC2)ccc1Oc1cccc(Cl)c1 | 4.89%
CC(C)CC(=O)N1CCc2nc(-c3ccc(Br)cc3)nc(N(C)Cc3ccccc3)c2C1 | -0.56%
N#Cc1ccc(Nc2ccc3[nH]c(=O)[nH]c3c2)c(Cl)c1 | -5.44%

Some of these lines once more (set 2):
assay | setting | how to read | parasite luminescence
time-kill | 0.00914 µM, 24 h | higher = more parasites | 270000 RLU and 217000 RLU
washout | concentration not given, exposure 0-72 h post-infection, unit not given | reference: day 0 RLU | -1880 and -1850 and -1980 and -1840
